# Experimental data of several laboratories.
# Amino acid sequences for entries named in this document (tags omitted).
# UniProt P34969, whole entry: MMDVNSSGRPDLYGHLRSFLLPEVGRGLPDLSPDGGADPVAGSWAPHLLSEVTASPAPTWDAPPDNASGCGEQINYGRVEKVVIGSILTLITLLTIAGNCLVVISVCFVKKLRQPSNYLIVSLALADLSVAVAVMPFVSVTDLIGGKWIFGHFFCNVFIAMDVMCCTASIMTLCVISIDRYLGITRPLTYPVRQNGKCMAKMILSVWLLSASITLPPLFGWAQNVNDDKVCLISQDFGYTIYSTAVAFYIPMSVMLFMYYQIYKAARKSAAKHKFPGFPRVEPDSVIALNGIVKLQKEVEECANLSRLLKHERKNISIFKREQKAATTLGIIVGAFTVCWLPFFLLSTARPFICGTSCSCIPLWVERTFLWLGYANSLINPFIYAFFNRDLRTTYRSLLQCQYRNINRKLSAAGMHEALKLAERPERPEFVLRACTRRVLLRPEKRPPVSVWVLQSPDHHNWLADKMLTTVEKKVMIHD
# ± gives the spread as reported.
Structure (SMILES),target or system,test,system,setting,scale,endpoint,result
CCCCCCC1c2ccc(O)cc2Oc2cc(O)ccc21,Klebsiella spp.,,,,,MIC,> 373 µg/mL
CC[C@H](C)[C@H]1O[C@]2(CC[C@@H]1C)C[C@@H]1C[C@@H](C/C=C(\C)[C@@H](O[C@H]3C[C@H](OC)[C@@H](O[C@H]4C[C@H](OC)[C@@H](O)[C@H](C)O4)[C@H](C)O3)[C@@H](C)/C=C/C=C3\CO[C@@H]4[C@H](O)C(C)=C[C@@H](C(=O)O1)[C@]34O)O2,HEK293 FXR-bla,reporter gene,,,,IC50,38.2 ± 3.9 µM
C#Cc1ccc2c(c1)C(c1ccccc1F)=N[C@H](C)c1c(-c3nc(C(C)C)no3)ncn1-2,mouse microglia,,,"50 µM, 14 h, with: IFNγ/LPS",,NO production,decreased
COc1cc(OC)c2ccccc2c1C=C1C(=O)NC(=S)NC1=O,Jurkat NF-kB GFP reporter,"NF-kB reporter gene, inhibitor",,,,IC50,3 µM
COc1cc(CC(=O)NCC(NC(=O)C(CCCNC(=O)c2cccc(I)c2)NC(=O)C(Cc2ccc(C(F)(F)P(=O)(O)O)cc2)NC(=O)c2ccc(C)c(Br)c2)C(N)=O)ccc1O (stereo not shown),primary mouse hepatocytes,Western blot,,"concentration not given, with: insulin 5 nM, 5 min",,Erk1/2 activation,increased
CCN1CCN(Cc2ccc(NC(=O)c3ccc(C)c(/C=C/c4cnc5[nH]ccc5c4OC)c3)cc2C(F)(F)F)CC1,TFG-ALK fusion,"kinase-CDC37 interaction, cell-based kinome screen",,5 µM,baseline: vehicle,log2 fold change,-0.039
Cc1ccc(S(=O)(=O)N(C)CC(=O)N(Cc2ccc(C3CCCCC3)cc2)c2ccc(C(=O)O)c(O)c2)cc1,Stat3-null MEFs,"cell viability, CyQuant",,,,IC50,> 100 µM
CCCCCCCCCCC/C=C/c1ccc2cc(CP(=O)(O)O)ccc2c1,MM1 rat hepatoma cells,,,"concentration not given, 24 h, invasion of HUVEC monolayer, with: 1.5 µM LPC",,cell invasion,inhibited
O=C(N/N=C/c1cc([N+](=O)[O-])ccc1O)c1ccc(O)cc1O,SK-OV-3 GFP knock-out,"cell viability, MTT",,,,IC50,37.3 µM
CSc1nc(Cl)cc(Sc2nnc(-c3cc(C(F)(F)F)cc(C(F)(F)F)c3)[nH]2)n1,Klebsiella pneumoniae,,BARB 105,with: NAB7061 4 µg/mL,,MIC,47.1 µg/mL
CC#C/C(=N\OC[C@H]1COCCN1)c1ccc2ncnc(Nc3ccc(OCc4cccc(F)c4)c(Cl)c3)c2c1,NCI-N87,cell growth,,with: 2% serum albumin,,IC50,0.0229 ± 0.0008 µM
C=CC(=O)N1C[C@H](c2ccc(Br)cc2)[C@@H]1C(=O)Nc1cccc2cccnc12,22Rv1,"activity-based protein profiling, item: cysteine 321",,"5 µM, 3 h",baseline: DMSO,loss of probe reactivity,~75%
CCCN1CCN(c2ccc3c(c2)C2CC3CCN2C(=O)OCc2ccccc2)CC1 (stereo not shown),"HTR7 (Homo sapiens, UniProt P34969)","binding, radioligand binding",,,,Ki,0.766 µM
